Published values pooled from the literature.
Every numbered part comes from another study and shows a few of its results, in no order.

Study 1
Target: RNA binding protein fox-1 homolog 2, RRM domain, GST-SBP tag (RBFOX2, Homo sapiens, UniProt O43251-10, residues 100-194)
Method: RNA Bind-n-Seq
Molecule type: RNA
Matrix: in vitro
Tested at: 365 nM
Setting: natural RNA segment, single round, ends assumed
Reference: no-protein control
Reading: higher = stronger binding
Shared flanks, not repeated: GGGAGUUCUACAGUCCGACGAUC … UGGAAUUCUCGGGUGCCAA
Target sequence (chain): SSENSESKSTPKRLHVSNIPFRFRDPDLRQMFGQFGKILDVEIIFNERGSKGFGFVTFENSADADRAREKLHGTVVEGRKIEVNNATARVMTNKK
Sequence | RBNS enrichment (R)
UCUUAAUCAGUAAAUGUUCACUGGCAUUUUGAAGGCAUGGCCCAAGAGAAGAGACACUAGCCAUAAAAUCUAGUUUCUAUUUAUCAACGUGUUGUGAAGAUGUACCUAAU | 0.373
GCACCGUGCUGUAAAUGUGGCAGACGCAGCCUGCGGCCAGGCUUUUUAUUUAAUGUAAAUAGUUUUUGUUUCCAAUGAGGCAGUUUCUGGUACUCCUAUGCAAUAUUACU | 0.34
GUGCAGAGGUGGUUGCUGCUUCCAGUUUCCCUUCAGACUUAGCUGUGUGAACCCCACUCCUAUCCUUUGGCCUUAGUUUUCCCAUCUGUAAAACUCAGAAACGCAGUUGG | 0.436
GGACUCUGAACUCAGAGCAGUCACACUUCCUUGGUUUUUUUAGGUUAGACAUUAACAAACAGCAGGAAAAUGUCACAUAACCUGGAAAGACCGCACUGGAGUUGGGUGUG | 0.443
AUAUGUAUGUAUAUACACACGUACAUACAUUCAUAUAUAUACAUAUAUACAUAAUGUGCUUAACCACUGCCUUUUAAAACUUUAAAUUAAAUAAAACAUUGGGGUUGAUU | 0.396
CGUCUACAGCUAAAACAAUUUGCCAAUAAAGUACAUGUUUUUCCUAAGCCAAAAAUAAAUACGUUAACAGAAAAAUGAUUUAGGAUAUAGCUUGAAUGCUUAAAUAUGUG | 0.485
AAAUAUGCAAGCAUAUCACAAAUGUUCCUUGUCCUUUCAAAGUGCAUUUGUUCAUCAAGAUCAAUAGAAUCUUACCAGUGGGUAGGAAAGGAUCAUAUAAAAUAUGAAGA | 0.37
AAGGGAAGGUUUGUUUUUUUUUCUCCCCAUUUUCCCCCAUUCUGUCUUUCUUUUGGUGACUUACACCACAUGUAAUGACGCUAUGACUAAUUCUGCUCCCAAGCCCUUGU | 0.361
GUUAUGUACCAUAAUGCUAAAUAAAACUGUGGCACUUUUCACCAUAAUUUAAUUUAGUGGAAAAAGAAGACAAUGCUUUCCAUAUUGUGAUAAGGUAACAUGGGGUUUUU | 0.365
CUUUGGAUCUAGACCUGGGGCCAGAUGUAUCUAGUGGAUAGACUUGCAGGGCCAUGCAGGCCGGACUCGUUGCCUUAAUUCAAGAACCUGUGUCUAUGUGUAUGUACACA | 0.286
CUCCCCCUUUCUGUGCCUGGGAACUGUUUGGUCCAGCUUUAGAACUGUGGUUUUGACUUCCUUAUCUCUUGGGAGAAGCUUCUGUUUUAAGGAAUUUCUCUUCCUUCUUC | 0.637
UACUAAAAAACUACUCGAGUAAAUAUCCUAACAAGUAUGAUUUUUCUUGGGAAAACUAAAAAUUGUACAUCCAUGCUUCAGCCAUAUCAUGGGCCUAAACUAUGAGAGUU | 0.372

Study 2
Target: Prothrombin, mature alpha-thrombin (F2, Homo sapiens, UniProt P00734)
Method: aptamer microarray, sandwich
Molecule type: DNA with 2'F-ANA
Matrix: in vitro
Tested at: 200 nM
Setting: whole 15-mer aptamer, many near background
Together with: Cy3 exosite-II aptamer, 400 nM
Reading: higher = stronger binding
Sequence: GGTTGGTGTGGTTGG
Modification | mean fluorescence intensity
2'F-ANA at 1 4 5 6 8 10 13 14 | 45.6 a.u.
2'F-ANA at 1 2 3 5 6 9 12 15 | 124 a.u.
2'F-ANA at 3 4 7 8 9 11 12 13 14 15 | 366 a.u.
2'F-ANA at 2 8 10 12 | 187 a.u.
2'F-ANA at 1 2 3 8 10 13 14 | 61.2 a.u.
2'F-ANA at 1 4 6 10 13 14 15 | 138 a.u.
2'F-ANA at 1 3 4 9 10 11 12 13 15 | 67.9 a.u.
2'F-ANA at 1 2 3 7 12 13 14 15 | 158 a.u.
2'F-ANA at 2 3 4 6 9 12 14 | 230 a.u.
2'F-ANA at 3 5 6 8 12 14 15 | 68 a.u.
2'F-ANA at 5 6 7 8 10 11 12 13 | 52.4 a.u.
2'F-ANA at 3 4 6 7 9 10 12 13 14 | 186 a.u.
2'F-ANA at 2 7 9 12 14 | 207 a.u.
2'F-ANA at 1 3 6 9 10 | 74.8 a.u.
2'F-ANA at 3 5 12 13 15 | 200 a.u.
2'F-ANA at 5 6 7 8 9 11 15 | 62.1 a.u.
2'F-ANA at 1 2 4 5 8 10 11 12 14 15 | 49.7 a.u.
2'F-ANA at 7 8 9 11 12 13 | 635 a.u.
2'F-ANA at 1 7 8 9 10 12 13 14 | 61.1 a.u.
2'F-ANA at 4 5 6 11 12 14 15 | 60.2 a.u.
2'F-ANA at 2 3 4 5 12 | 294 a.u.
2'F-ANA at 1 4 5 6 7 10 11 12 13 14 15 | 49.3 a.u.
2'F-ANA at 1 6 7 8 11 12 13 14 15 | 73.5 a.u.
2'F-ANA at 2 3 5 6 7 9 12 14 | 54.5 a.u.

Study 3
Target: Runt-related transcription factor 1, full length (RUNX1, Homo sapiens, UniProt Q01196-8, residues 1-480)
Method: protein-binding microarray
Molecule type: hairpin DNA
Matrix: in vitro
Tested at: not given
Setting: whole hairpin DNA, median over replicate spots
Reference: not given
Reading: higher = stronger binding
Sequence | median fluorescence
GAGGCCTGTCGCGCGTGGCCTCCTGGCCACGCGCGACAGGCCTCACACTC | 1870 a.u.
GAGGCCTCTTGCGGTTGGCCTCCTGGCCAACCGCAAGAGGCCTCACACTC | 5870 a.u.
CTCAGTCGTGTGGGCTGGACTCCTGTCCAGCCCACACGACTGAGACACTC (5mC at 7 37) | 1900 a.u.
GAGGCCGGTTGCGGTTGGCCTCCTGGCCAACCGCAACCGGCCTCACACTC | 7390 a.u.
GAGGCCTGTTCCGGTTGGCCTCCTGGCCAACCGGAACAGGCCTCACACTC | 1630 a.u.
GAGGCCCAACCGCAATAGCCTCCTGGCTATTGCGGTTGGGCCTCACACTC | 6370 a.u.
CTCAGCGCTGTGGGCTGGACTCCTGTCCAGCCCACAGCGCTGAGACACTC (5mC at 6 38) | 1970 a.u.
CTCAGTTCTGTCGGCTGGACTCCTGTCCAGCCGACAGAACTGAGACACTC (5mC at 12 32) | 1700 a.u.
GAGGCCTGTTGCGCGTGGCCTCCTGGCCACGCGCAACAGGCCTCACACTC (5mC at 14) | 1830 a.u.
GAGGCCCAATCGCAACAGCCTCCTGGCTGTTGCGATTGGGCCTCACACTC | 1740 a.u.
CTCAGTTCTCGGGGCTGGACTCCTGTCCAGCCCCGAGAACTGAGACACTC (5mC at 10 34) | 1650 a.u.
GAGGCCCAACCTCAACAGCCTCCTGGCTGTTGAGGTTGGGCCTCACACTC | 2030 a.u.
GAGGCCCAACCGCAACAGCCTCCTGGCTGTTGCGGTTGGGCCTCACACTC (5mC at 11 33) | 1970 a.u.
GAGGCCCAACCGAAACAGCCTCCTGGCTGTTTCGGTTGGGCCTCACACTC | 1890 a.u.
GAGGCCCAACCGCAACCGCCTCCTGGCGGTTGCGGTTGGGCCTCACACTC | 6540 a.u.
GAGGCCCAACCGCTACAGCCTCCTGGCTGTAGCGGTTGGGCCTCACACTC | 2490 a.u.
GAGGCCTGTTCTGGTTGGCCTCCTGGCCAACCAGAACAGGCCTCACACTC (5mC at 11) | 1770 a.u.
GAGGCCCAACCGCAACAGCCTCCTGGCTGTTGCGGTTGGGCCTCACACTC (5mC at 13) | 6660 a.u.
GAGGCCCCGCCGCAACAGCCTCCTGGCTGTTGCGGCGGGGCCTCACACTC | 2560 a.u.

Study 4
Target: Histone acetyltransferase KAT6A, winged helix 2, GST fusion (KAT6A, Homo sapiens, UniProt Q92794, residues 85-181)
Method: protein binding microarray
Molecule type: double-stranded DNA, one strand shown
Matrix: in vitro
Tested at: not given
Setting: 8-mer, flanks averaged, mean of 2 arrays, mostly near background
Reference: not given
Reading: higher = stronger binding
Target sequence (chain): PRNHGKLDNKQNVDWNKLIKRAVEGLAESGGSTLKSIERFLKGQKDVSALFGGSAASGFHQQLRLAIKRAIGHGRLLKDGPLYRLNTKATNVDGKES
Sequence | E-score
ATTGCCGA | 0.036
AACGGCAG | 0.14
ACAAATTC | 0.0355
CCAGATTC | 0.00795
GCGTGAAC | 0.12
ATGCCCTC | 0.0741
CCCGGTCG | 0.0778
CACCTCAC | 0.0338
AGTATCCC | -0.0596
GAACTCGA | -0.0337
CAAAATAG | -0.101
ACTTATCG | -0.211
GACGCAAA | 0.136
ACCATGAC | 0.00824
AAGACGTA | -0.0858
TCGACCAA | -0.000835
ACGCGCGG | 0.247
GCCCCGGA | 0.213
GCAACCCC | 0.103
ACGGGTCC | 0.00385
AATGAAAT | 0.154
AGGTCGGC | 0.246
AACAGTCT | -0.247
CAGTTGAA | -0.192
AATAAGCG | -0.133

Study 5
Target: PABPC1L2, full length, GST fusion (mouse, UniProt A0ABA7IW68)
Method: RNAcompete
Molecule type: RNA
Matrix: in vitro
Tested at: 20 nM
Setting: 7-mer, probes averaged, single round
Reference: mean of 7-mers
Reading: higher = stronger binding
Construct (chain): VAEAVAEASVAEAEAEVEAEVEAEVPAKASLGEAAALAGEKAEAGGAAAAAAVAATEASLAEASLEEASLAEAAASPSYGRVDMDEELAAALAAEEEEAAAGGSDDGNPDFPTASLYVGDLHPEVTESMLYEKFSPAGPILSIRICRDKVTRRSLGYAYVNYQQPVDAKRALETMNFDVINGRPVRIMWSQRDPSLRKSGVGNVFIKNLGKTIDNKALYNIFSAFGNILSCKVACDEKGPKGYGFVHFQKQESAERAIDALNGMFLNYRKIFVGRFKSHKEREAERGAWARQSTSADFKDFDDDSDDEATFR
Sequence | 7-mer Z-score
UCAUUUG | -0.416
CUGAUGG | 0.000733
GGUGUUU | -0.391
AGUCAAU | -0.354
GAUCUGA | -0.128
UAGCUAG | -0.0863
CCCACCG | -0.416
UUGUCCU | -0.421
CGUUGGA | 0.0569
GUAUGCG | -0.0971
CAUAGUA | -0.202
CAGCCAU | -0.141
GACAACC | -0.00108
CGUAUCC | -0.371
GAUCAUG | -0.119
CAGUGGU | -0.231
CGUCACU | -0.434
GAGAUCG | -0.0591
AGAUGGG | 0.00436
ACAGCUA | -0.0047
GCCGGGC | -0.0591
UCUCGAA | -0.0355
GUAACAG | 0.126
UUAGGGG | 0.244
AAUAAUA | 0.553

For quick reference, copied from above (study 2):
Modification | mean fluorescence intensity
2'F-ANA at 3 4 6 7 9 10 12 13 14 | 186 a.u.
2'F-ANA at 1 3 4 9 10 11 12 13 15 | 67.9 a.u.
2'F-ANA at 7 8 9 11 12 13 | 635 a.u.
2'F-ANA at 3 5 6 8 12 14 15 | 68 a.u.
2'F-ANA at 2 3 4 6 9 12 14 | 230 a.u.
2'F-ANA at 1 2 3 5 6 9 12 15 | 124 a.u.
2'F-ANA at 1 7 8 9 10 12 13 14 | 61.1 a.u.
2'F-ANA at 1 4 6 10 13 14 15 | 138 a.u.
2'F-ANA at 5 6 7 8 9 11 15 | 62.1 a.u.
2'F-ANA at 1 2 3 7 12 13 14 15 | 158 a.u.
